Assay results collected from several papers.
“And” joins repeats or separate records; there may be more than shown. ± gives the spread as reported.
ABL2 SH2 domain: Tyrosine-protein kinase ABL2, SH2 domain (ABL2, Homo sapiens, UniProt P42684)
UniProt P42684, sequence (whole entry, looked up): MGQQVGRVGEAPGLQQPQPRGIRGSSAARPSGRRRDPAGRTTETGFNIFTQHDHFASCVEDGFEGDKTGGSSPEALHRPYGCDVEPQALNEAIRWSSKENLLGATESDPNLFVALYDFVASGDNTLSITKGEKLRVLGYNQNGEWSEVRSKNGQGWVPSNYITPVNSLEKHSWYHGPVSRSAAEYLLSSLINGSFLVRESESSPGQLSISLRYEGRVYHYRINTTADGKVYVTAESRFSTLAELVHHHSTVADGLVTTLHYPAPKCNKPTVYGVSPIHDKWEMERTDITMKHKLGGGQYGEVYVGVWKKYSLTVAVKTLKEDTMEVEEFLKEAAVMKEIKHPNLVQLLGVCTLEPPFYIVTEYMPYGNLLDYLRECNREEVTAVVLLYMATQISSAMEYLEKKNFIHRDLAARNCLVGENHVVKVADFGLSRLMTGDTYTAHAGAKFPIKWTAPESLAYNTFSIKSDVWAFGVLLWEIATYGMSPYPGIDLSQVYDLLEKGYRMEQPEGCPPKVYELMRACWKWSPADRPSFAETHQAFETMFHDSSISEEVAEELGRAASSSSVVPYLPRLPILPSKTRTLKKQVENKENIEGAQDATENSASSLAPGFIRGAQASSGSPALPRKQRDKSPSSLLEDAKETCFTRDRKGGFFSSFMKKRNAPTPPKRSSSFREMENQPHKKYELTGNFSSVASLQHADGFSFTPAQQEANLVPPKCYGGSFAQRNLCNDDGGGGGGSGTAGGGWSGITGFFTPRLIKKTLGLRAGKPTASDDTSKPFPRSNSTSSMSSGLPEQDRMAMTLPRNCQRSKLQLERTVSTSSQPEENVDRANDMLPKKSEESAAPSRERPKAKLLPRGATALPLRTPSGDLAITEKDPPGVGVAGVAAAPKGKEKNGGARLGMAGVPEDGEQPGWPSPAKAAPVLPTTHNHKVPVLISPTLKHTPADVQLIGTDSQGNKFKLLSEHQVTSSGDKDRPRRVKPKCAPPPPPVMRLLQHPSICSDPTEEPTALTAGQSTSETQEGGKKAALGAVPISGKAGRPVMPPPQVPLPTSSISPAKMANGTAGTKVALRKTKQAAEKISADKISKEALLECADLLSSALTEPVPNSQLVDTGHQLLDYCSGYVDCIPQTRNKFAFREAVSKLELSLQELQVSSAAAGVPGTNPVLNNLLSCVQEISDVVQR
GLP1R: Glucagon-like peptide 1 receptor (GLP1R, Homo sapiens, UniProt P43220)
ITK SH2 domain: Tyrosine-protein kinase ITK/TSK, SH2 domain (ITK, Homo sapiens, UniProt Q08881)
UniProt Q08881, sequence (whole entry, looked up): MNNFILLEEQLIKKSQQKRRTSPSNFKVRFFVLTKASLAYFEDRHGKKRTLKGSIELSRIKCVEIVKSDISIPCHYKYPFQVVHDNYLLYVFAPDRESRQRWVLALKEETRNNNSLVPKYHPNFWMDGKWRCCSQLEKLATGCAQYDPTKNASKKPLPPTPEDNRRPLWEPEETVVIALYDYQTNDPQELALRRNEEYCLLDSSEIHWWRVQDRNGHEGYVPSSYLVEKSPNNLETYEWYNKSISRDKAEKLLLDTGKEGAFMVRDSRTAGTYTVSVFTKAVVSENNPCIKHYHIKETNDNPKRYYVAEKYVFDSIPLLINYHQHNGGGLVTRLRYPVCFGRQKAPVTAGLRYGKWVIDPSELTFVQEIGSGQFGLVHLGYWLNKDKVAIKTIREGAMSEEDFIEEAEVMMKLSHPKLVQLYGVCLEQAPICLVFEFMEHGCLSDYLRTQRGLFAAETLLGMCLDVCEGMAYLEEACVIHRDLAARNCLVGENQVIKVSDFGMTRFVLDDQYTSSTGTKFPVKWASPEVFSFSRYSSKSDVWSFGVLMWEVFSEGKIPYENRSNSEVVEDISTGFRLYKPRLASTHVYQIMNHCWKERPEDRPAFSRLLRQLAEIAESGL
UniProt P10635, sequence (whole entry, looked up): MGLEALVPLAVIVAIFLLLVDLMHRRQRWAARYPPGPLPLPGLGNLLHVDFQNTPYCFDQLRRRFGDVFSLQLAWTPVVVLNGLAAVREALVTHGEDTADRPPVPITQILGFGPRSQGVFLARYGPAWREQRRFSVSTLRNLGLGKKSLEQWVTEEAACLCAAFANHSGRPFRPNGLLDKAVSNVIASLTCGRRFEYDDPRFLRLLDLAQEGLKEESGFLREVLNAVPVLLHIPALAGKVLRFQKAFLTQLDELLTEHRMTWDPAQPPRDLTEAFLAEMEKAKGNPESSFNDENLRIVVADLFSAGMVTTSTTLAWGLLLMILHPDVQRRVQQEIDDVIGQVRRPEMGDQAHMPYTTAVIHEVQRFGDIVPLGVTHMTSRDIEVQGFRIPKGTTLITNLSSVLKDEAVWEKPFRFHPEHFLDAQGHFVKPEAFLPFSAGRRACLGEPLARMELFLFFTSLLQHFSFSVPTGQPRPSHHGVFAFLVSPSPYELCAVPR
UniProt P51449, sequence (whole entry, looked up): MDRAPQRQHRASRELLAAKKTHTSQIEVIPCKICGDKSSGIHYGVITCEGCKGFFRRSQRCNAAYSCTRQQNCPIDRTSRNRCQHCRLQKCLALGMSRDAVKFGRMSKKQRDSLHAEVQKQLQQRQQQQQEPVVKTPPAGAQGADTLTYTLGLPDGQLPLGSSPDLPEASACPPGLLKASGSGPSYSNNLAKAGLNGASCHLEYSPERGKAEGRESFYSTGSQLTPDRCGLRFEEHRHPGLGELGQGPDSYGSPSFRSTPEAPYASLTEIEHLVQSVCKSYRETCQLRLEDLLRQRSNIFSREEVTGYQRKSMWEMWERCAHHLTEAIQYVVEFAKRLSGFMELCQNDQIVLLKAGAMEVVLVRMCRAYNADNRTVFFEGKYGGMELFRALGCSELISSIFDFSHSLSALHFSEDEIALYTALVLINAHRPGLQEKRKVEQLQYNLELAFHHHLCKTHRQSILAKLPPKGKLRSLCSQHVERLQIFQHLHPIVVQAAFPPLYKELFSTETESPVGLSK
UniProt P02786, sequence (whole entry, looked up): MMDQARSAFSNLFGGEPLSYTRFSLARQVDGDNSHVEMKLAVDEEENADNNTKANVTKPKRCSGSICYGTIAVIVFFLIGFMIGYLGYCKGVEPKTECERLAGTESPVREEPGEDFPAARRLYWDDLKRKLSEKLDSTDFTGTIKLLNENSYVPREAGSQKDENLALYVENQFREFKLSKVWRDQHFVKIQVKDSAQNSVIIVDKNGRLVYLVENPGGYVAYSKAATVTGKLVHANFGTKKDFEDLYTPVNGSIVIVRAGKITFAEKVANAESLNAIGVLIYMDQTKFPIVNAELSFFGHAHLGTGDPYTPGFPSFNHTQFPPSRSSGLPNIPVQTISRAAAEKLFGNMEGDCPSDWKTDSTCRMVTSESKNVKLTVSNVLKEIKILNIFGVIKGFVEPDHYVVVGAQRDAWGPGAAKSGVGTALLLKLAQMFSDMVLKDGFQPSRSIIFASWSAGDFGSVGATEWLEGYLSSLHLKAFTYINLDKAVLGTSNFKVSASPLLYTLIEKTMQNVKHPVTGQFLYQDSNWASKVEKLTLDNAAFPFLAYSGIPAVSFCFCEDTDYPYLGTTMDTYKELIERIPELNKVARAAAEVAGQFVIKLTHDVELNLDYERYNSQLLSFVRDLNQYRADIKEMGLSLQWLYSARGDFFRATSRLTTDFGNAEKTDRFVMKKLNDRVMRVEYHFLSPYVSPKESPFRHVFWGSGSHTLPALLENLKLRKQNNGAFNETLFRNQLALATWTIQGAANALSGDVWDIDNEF
UniProt P05046, sequence (whole entry, looked up): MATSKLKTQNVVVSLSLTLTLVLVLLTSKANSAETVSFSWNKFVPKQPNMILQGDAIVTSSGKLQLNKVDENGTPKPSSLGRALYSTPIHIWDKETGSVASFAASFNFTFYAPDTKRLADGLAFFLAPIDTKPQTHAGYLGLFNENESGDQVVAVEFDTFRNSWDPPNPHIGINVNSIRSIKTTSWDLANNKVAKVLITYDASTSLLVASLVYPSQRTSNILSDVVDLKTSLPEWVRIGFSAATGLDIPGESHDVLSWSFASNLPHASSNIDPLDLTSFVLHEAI
UniProt Q14680, sequence (whole entry, looked up): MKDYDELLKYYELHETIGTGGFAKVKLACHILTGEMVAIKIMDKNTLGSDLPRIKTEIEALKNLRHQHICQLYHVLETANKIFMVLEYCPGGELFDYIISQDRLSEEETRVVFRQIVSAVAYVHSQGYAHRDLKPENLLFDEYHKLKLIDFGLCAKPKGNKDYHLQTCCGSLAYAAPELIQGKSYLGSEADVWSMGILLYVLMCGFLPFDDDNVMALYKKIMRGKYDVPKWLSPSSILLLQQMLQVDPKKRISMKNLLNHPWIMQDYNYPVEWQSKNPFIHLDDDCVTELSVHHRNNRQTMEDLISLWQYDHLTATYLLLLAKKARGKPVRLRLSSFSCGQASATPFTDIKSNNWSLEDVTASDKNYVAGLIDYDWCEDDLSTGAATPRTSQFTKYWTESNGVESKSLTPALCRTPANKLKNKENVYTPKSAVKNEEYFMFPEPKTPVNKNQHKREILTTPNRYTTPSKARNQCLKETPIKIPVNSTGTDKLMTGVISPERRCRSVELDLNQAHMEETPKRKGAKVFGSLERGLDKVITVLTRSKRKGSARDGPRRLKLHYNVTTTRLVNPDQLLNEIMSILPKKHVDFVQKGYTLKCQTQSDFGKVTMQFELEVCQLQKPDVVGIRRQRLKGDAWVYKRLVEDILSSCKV

SMILES	target	test	system	setting	how to read	endpoint	result
Nc1ncnc2c1ncn2[C@@H]1O[C@H](COP(=O)(O)OP(=O)(O)OP(=O)(O)O)[C@@H](O)[C@H]1O	matB (Rhodopseudomonas palustris, UniProt Q6ND88, C106A/K488A/Q457C/R286C)	binding	Tris-HCl buffer	pH 7.5	–	Kd	6 ± 0.4 µM
CC(C)C[C@H](NC(=O)[C@H](CO)NC(=O)[C@H](CO)NC(=O)CNC(=O)[C@@H]1CCCN1C(=O)[C@H](Cc1ccc(O)cc1)NC(=O)[C@H](CC(C)C)NC(=O)[C@H](CO)NC(=O)[C@H](CS)NC(=O)[C@H](CC(C)C)NC(=O)[C@@H](N)CC(C)C)C(=O)O	Epidermal growth factor receptor, extracellular domain (EGFR, Homo sapiens, UniProt P00533)	binding, second site, surface plasmon resonance	immobilised soluble EGFR	25 °C, model, binding, one to two	–	Kd	5.9 µM
CC[C@H](C)[C@H](NC(=O)[C@H](Cc1ccc(O)cc1)NC(=O)[C@H](CCC(=O)O)NC(=O)[C@H](Cc1c[nH]cn1)NC(=O)CNC(=O)[C@H](CC(=O)O)NC(=O)[C@H](CO)NC(=O)[C@H](CO)NC(=O)[C@@H](NC(=O)c1ccc2c(c1)C(=O)OC21c2ccc(N(C)C)cc2Oc2cc(N(C)C)ccc21)C(C)C)C(=O)N[C@@H](Cc1ccc(OP(=O)(O)O)cc1)C(=O)N[C@H](C(=O)N[C@@H](CC(=O)O)C(=O)N1CCC[C@H]1C(=O)N[C@@H](CCSC)C(=O)N[C@@H](CCC(N)=O)C(=O)N[C@@H](CC(C)C)C(=O)N1CCC[C@H]1C(=O)N[C@@H](CC(=O)O)C(=O)O)C(C)C	ABL2 SH2 domain	binding	–	–	–	Kd	0.077 µM
Nc1ncnc2c1ncn2[C@@H]1O[C@H](COP(=O)(O)O)[C@@H](OP(=O)(O)O)[C@H]1O	Thermonuclease, denatured (nuc, Staphylococcus aureus, UniProt P00644)	–	–	–	–	Kd	800 µM
CC[C@H](C)[C@H](NC(=O)[C@H](CC(=O)O)NC(=O)[C@H](C)NC(=O)[C@H](Cc1ccc(O)cc1)NC(=O)[C@H](CCCCN)NC(=O)c1ccc2c(c1)C(=O)OC21c2ccc(N(C)C)cc2Oc2cc(N(C)C)ccc21)C(=O)N[C@@H](CCC(=O)O)C(=O)N[C@@H](CO)C(=O)N[C@@H](CO)C(=O)N[C@@H](CC(N)=O)C(=O)N[C@@H](Cc1ccc(OP(=O)(O)O)cc1)C(=O)N[C@@H](CCSC)C(=O)N[C@@H](C)C(=O)N1CCC[C@H]1C(=O)N[C@@H](Cc1ccc(O)cc1)C(=O)N[C@@H](CC(=O)O)C(=O)N[C@@H](CC(N)=O)C(=O)N[C@@H](Cc1ccc(O)cc1)C(=O)N[C@@H](CC(=O)O)C(=O)O	Tyrosine-protein kinase SYK, SH2 domains (SYK, Homo sapiens, UniProt P43405)	binding	–	–	–	Kd	1.81 µM
CC[C@H](CO)Nc1nc(NCc2ccc(-c3ccccn3)cc2)c2ncn(C(C)C)c2n1	Maternal embryonic leucine zipper kinase (MELK, Homo sapiens, UniProt Q14680)	binding, competition affinity chromatography	SH-SY5Y cell extract	–	–	Kd	27.7 µM
c1c2c(cc3c1OCO3)-c1cc3ccc4c(c3c[n+]1CC2)OCO4	Nuclear receptor ROR-gamma (RORC, Homo sapiens, UniProt P51449)	SPR	ligand-binding domain	–	–	Kd	59.7 µM
CC[C@H](C)[C@H](NC(=O)[C@H](Cc1ccccc1)NC(=O)[C@H](CCC(=O)O)NC(=O)[C@H](CCCNC(=N)N)NC(=O)[C@H](C)NC(=O)[C@H](C)NC(=O)[C@H](CCC(N)=O)NC(=O)[C@H](CCC(=O)O)NC(=O)[C@H](CCC(=O)O)NC(=O)[C@H](CC(C)C)NC(=O)[C@H](Cc1ccc(O)cc1)NC(=O)[C@H](CO)NC(=O)[C@H](CO)NC(=O)[C@@H](NC(=O)[C@H](CC(=O)O)NC(=O)[C@H](CO)NC(=O)[C@@H](NC(=O)[C@H](Cc1ccccc1)NC(=O)[C@@H](NC(=O)CNC(=O)[C@H](CCC(=O)O)NC(=O)[C@H](C)NC(=O)CCc1cnc[nH]1)[C@@H](C)O)[C@@H](C)O)C(C)C)C(=O)N[C@@H](C)C(=O)N[C@@H](Cc1c[nH]c2ccccc12)C(=O)N[C@@H](CC(C)C)C(=O)N[C@H](C(=O)N[C@@H](CCCNC(=N)N)C(=O)NCC(=O)N[C@@H](CCCNC(=N)N)C(=O)N[C@@H](CCCCNC(=O)COCCOCCNC(=O)COCCOCCNC(=O)CC[C@H](NC(=O)CCCCCCCCCCCCCCCCC(=O)O)C(=O)O)C(=O)NCC(=O)NCC(=O)N[C@@H](CO)C(=O)N[C@@H](CCCCNc1c(NCCCCCN(O)C(=O)CCC(=O)NCCCCCN(O)C(=O)CCC(=O)NCCCCCN(O)C(C)=O)c(=O)c1=O)C(=O)NCC(=O)NCC(=O)N[C@@H](CO)C(=O)N[C@@H](CCCCNc1c(NCCCCCN(O)C(=O)CCC(=O)NCCCCCN(O)C(=O)CCC(=O)NCCCCCN(O)C(C)=O)c(=O)c1=O)C(=O)O)C(C)C	GLP1R	cAMP reporter gene, agonist, CRE luciferase	BHK	with Zr, 0% HSA	–	EC50	0.0068 nM
CC[C@@H](C)[C@@H](NC(=O)[C@@H](Cc1ccc(O)cc1)NC(=O)[C@H]1CCCN1C(=O)[C@@H](CCCNC(=N)N)NC(=O)[C@H](N)Cc1c[nH]cn1)C(=O)N[C@H](C)C(=O)N[C@H](Cc1c[nH]cn1)C(=O)N[C@H](CCCNC(=N)N)C(=O)N[C@H](CCCCNC(=O)c1cccc(S(=O)(=O)F)c1)C(=O)N[C@H](Cc1ccc(O)cc1)C(=O)N[C@H](CO)C(=O)N[C@H](Cc1ccccc1)C(N)=O	Transferrin receptor protein 1 (TFRC, Homo sapiens, UniProt P02786)	microscale thermophoresis	–	2 h, OFP-tagged protein	–	Kd	4.6 ± 5 µM
CC[C@H](C)[C@H](NC(=O)[C@H](Cc1ccccc1)NC(=O)[C@H](CCC(=O)O)NC(=O)[C@H](CCCNC(=N)N)NC(=O)[C@H](C)NC(=O)[C@H](C)NC(=O)[C@H](CCC(N)=O)NC(=O)[C@H](CCCCNc1c(NCCCCCN(O)C(=O)CCC(=O)NCCCCCN(O)C(=O)CCC(=O)NCCCCCN(O)C(C)=O)c(=O)c1=O)NC(=O)[C@H](CCC(=O)O)NC(=O)[C@H](CC(C)C)NC(=O)[C@H](Cc1ccc(O)cc1)NC(=O)[C@H](CO)NC(=O)[C@H](CO)NC(=O)[C@@H](NC(=O)[C@H](CC(=O)O)NC(=O)[C@H](CO)NC(=O)[C@@H](NC(=O)[C@H](Cc1ccccc1)NC(=O)[C@@H](NC(=O)CNC(=O)[C@H](CCC(=O)O)NC(=O)[C@H](C)NC(=O)CCc1cnc[nH]1)[C@@H](C)O)[C@@H](C)O)C(C)C)C(=O)N[C@@H](C)C(=O)N[C@@H](Cc1c[nH]c2ccccc12)C(=O)N[C@@H](CC(C)C)C(=O)N[C@H](C(=O)N[C@@H](CCCCNc1c(NCCCCCN(O)C(=O)CCC(=O)NCCCCCN(O)C(=O)CCC(=O)NCCCCCN(O)C(C)=O)c(=O)c1=O)C(=O)NCC(=O)N[C@@H](CCCNC(=N)N)C(=O)N[C@@H](CCCCNC(=O)COCCOCCNC(=O)COCCOCCNC(=O)CC[C@H](NC(=O)CCCCCCCCCCCCCCCCC(=O)O)C(=O)O)C(=O)O)C(C)C	GLP1R	cAMP reporter gene, agonist, CRE luciferase	BHK	without Zr, 1% HSA	–	EC50	1.7 nM
Nc1ncnc2c1ncn2[C@@H]1O[C@H](COP(=O)(O)OP(=O)(O)NP(=O)(O)O)[C@@H](O)[C@H]1O	Cell cycle histidine kinase CckA, R374A; cytoplasmic region (Caulobacter vibrioides, UniProt Q9X688, R374A)	isothermal titration calorimetry	Caulobacter crescentus	12 °C, with: without c-di-GMP	–	Kd	no binding
CC(=O)N[C@@H]1[C@@H](O)[C@@H](O)[C@@H](CO)O[C@@H]1O	Vicia villosa lectin	glycan microarray	–	4 glycans per BSA	–	Kd	0.099 ± 0.024 µM
CCCCCCCCCCCC(=O)N[C@H]1CCOC1=O	qscR, DNA-bound (Pseudomonas aeruginosa, UniProt G3XD77)	DNA binding, ligand, EMSA	–	4 °C, saturating ligand	–	Kd	0.00681 µM
COc1cc(Nc2ncc(F)c(Nc3ccc4c(n3)NC(=O)C(C)(C)O4)n2)cc(OC)c1OC	Ryanodine receptor 3 (Rattus norvegicus, UniProt A0ABK0LPH6)	–	–	–	–	IC50	> 10 µM
C[C@H](O)[C@H](O)c1cnc2[nH]c(N)nc(=O)c2n1	Phenylalanine-4-hydroxylase (phhA, Chromobacterium violaceum, UniProt P30967, F107L/P134L/W180A/Y130S/Y179W)	–	–	–	–	Kd	122 ± 25.1 µM
CC[C@H](C)[C@H](NC(=O)[C@H](Cc1ccc(OP(=O)(O)O)cc1)NC(=O)[C@H](CCC(=O)O)NC(=O)[C@@H]1CCCN1C(=O)[C@@H](NC(=O)[C@@H]1CCCN1C(=O)[C@H](CC(C)C)NC(=O)[C@H](Cc1ccccc1)NC(=O)[C@@H](NC(=O)[C@H](CC(=O)O)NC(=O)[C@H](CC(=O)O)NC(=O)c1ccc2c(c1)C(=O)OC21c2ccc(N(C)C)cc2Oc2cc(N(C)C)ccc21)[C@@H](C)O)C(C)C)C(=O)N[C@@H](CC(N)=O)C(=O)N[C@@H](CCC(N)=O)C(=O)N[C@@H](CO)C(=O)N[C@H](C(=O)N1CCC[C@H]1C(=O)N[C@@H](CCCCN)C(=O)N[C@@H](CC(=O)O)C(=O)O)C(C)C	ITK SH2 domain	binding	–	–	–	Kd	0.219 µM
CCCCCCCCCCCCCC(=O)O[C@@H]1[C@@H](C)[C@@]2(O)[C@@H](C=C(CO)C[C@]3(O)C(=O)C(C)=C[C@@H]23)[C@@H]2C(C)(C)[C@]12OC(C)=O	protein kinase C C1 domain	binding, microscale thermophoresis	–	–	–	Kd	0.19 µM
CC[C@H](C)[C@H](NC(=O)c1ccc2c(c1)C(=O)OC21c2ccc(N(C)C)cc2Oc2cc(N(C)C)ccc21)C(=O)N[C@@H](CCC(=O)O)C(=O)N[C@@H](CO)C(=O)N[C@@H](CO)C(=O)N[C@@H](CC(N)=O)C(=O)N[C@@H](Cc1ccc(O)cc1)C(=O)N[C@@H](CCSC)C(=O)N[C@@H](C)C(=O)N1CCC[C@H]1C(=O)N[C@@H](Cc1ccc(OP(=O)(O)O)cc1)C(=O)N[C@@H](CC(=O)O)C(=O)N[C@@H](CC(N)=O)C(=O)N[C@@H](Cc1ccc(O)cc1)C(=O)N[C@H](C(=O)N1CCC[C@H]1C(=O)N[C@@H](CO)C(=O)N[C@@H](C)C(=O)N[C@@H](CC(=O)O)C(=O)O)C(C)C	ITK SH2 domain	binding	–	–	–	Kd	1.2 µM
N=C(N)NCCC[C@H](N)C(=O)O	uncharacterized protein (Pelagibacter ubique, UniProt Q4FLC2)	isothermal titration calorimetry	Candidatus Pelagibacter ubique	displacement titration, with: octopine competitor 1 mM	–	Kd	0.000105 µM and 4.03e-05 µM and 6.67e-05 µM and 8.07e-05 µM
N=C(N)N	Gdx-Clo mutant A60T/A67I/K101N	tryptophan fluorescence	–	–	–	Kd	80 µM
CC(=O)N[C@H]1[C@@H](O[C@H](C)[C@H](NC(C)=O)C(=O)N[C@H](C(=O)N[C@H](C(=O)NCC(=O)O)[C@@H](C)O[C@H]2O[C@H](CO)[C@H](O)[C@H](O)[C@H]2NC(C)=O)[C@@H](C)O[C@H]2O[C@H](CO)[C@H](O)[C@H](O)[C@H]2NC(C)=O)O[C@H](CO)[C@H](O)[C@@H]1O	LE1 (Glycine max, UniProt P05046)	glycan microarray	–	5 glycans per BSA	–	Kd	0.03 ± 0.01 µM
C[C@H]1CN(c2n[nH]c3nc(N[C@H]4CC[C@H](NS(=O)(=O)CCC(F)(F)F)CC4)ncc23)CCO1	High affinity nerve growth factor receptor (NTRK1, Homo sapiens, UniProt P04629)	inhibitor, Kinobeads competition profiling	–	0.16 µM	reference: vehicle	relative abundance	1.08
CC(C)(C)C(=O)C(Oc1ccc(Cl)cc1)n1ccnc1 (stereo not shown)	Cytochrome P450 2D6 (CYP2D6, Homo sapiens, UniProt P10635)	binding	–	20 min, pH 7.4, purified protein, 2% DMSO	–	Kd	15.8 µM
CC[C@H](C)[C@H](NC(=O)[C@H](CCC(N)=O)NC(=O)[C@H](Cc1c[nH]cn1)NC(=O)c1ccc2c(c1)C(=O)OC21c2ccc(N(C)C)cc2Oc2cc(N(C)C)ccc21)C(=O)N[C@@H](CO)C(=O)N[C@@H](CC(C)C)C(=O)N[C@@H](CC(=O)O)C(=O)N[C@@H](CC(N)=O)C(=O)N1CCC[C@H]1C(=O)N[C@@H](CC(=O)O)C(=O)N[C@@H](Cc1ccc(OP(=O)(O)O)cc1)C(=O)N[C@@H](CCC(N)=O)C(=O)N[C@@H](CCC(N)=O)C(=O)N[C@@H](CC(=O)O)C(=O)N[C@@H](Cc1ccccc1)C(=O)N[C@@H](Cc1ccccc1)C(=O)N1CCC[C@H]1C(=O)N[C@@H](CCCCN)C(=O)N[C@@H](CC(=O)O)C(=O)O	ABL2 SH2 domain	binding	–	–	–	Kd	0.49 µM
O=C(O)CNC(=O)c1cccnc1	Ubiquitin carboxyl-terminal hydrolase 5, ZnF-UBD domain (USP5, Homo sapiens, UniProt P45974)	–	–	–	–	Kd	> 1000 µM
